Measured values pooled from the literature.
Protocols differ between the studies behind these lines. “And” joins repeats or separate records; there may be more than shown. ± gives the spread as reported.
Chain of UniProt P10721 (whole entry, unmodified, looked up): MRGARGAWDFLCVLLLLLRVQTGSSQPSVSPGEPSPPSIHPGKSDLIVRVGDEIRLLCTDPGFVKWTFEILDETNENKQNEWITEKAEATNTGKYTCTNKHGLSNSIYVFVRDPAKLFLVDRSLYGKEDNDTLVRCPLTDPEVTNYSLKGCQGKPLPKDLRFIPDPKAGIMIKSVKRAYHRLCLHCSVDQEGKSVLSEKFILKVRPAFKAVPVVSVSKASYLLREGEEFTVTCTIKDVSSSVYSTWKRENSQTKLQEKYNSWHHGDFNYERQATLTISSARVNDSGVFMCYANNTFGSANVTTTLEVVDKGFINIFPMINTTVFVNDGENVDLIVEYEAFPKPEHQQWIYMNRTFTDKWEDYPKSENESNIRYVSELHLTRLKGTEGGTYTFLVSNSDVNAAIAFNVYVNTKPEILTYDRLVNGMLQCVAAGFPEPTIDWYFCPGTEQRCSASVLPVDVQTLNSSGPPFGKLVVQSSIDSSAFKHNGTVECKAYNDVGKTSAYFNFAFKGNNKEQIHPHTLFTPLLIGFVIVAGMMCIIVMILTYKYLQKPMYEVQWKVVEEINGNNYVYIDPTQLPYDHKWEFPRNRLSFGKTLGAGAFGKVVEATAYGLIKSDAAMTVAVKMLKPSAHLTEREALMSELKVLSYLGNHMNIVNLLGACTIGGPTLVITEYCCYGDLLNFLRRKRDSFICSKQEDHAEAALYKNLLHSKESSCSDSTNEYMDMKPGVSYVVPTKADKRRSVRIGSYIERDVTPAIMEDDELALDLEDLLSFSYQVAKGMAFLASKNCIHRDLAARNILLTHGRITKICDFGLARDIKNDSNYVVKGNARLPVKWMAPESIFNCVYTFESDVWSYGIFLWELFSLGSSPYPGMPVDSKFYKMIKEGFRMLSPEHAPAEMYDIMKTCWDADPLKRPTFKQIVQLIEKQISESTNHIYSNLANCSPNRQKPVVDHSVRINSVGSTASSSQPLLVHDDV

| Compound | target or system | assay | test system | setting | how to read | quantity | value |
| --- | --- | --- | --- | --- | --- | --- | --- |
| CC(C)OCCOCc1ccc(OCC(O)CN(N=O)C(C)C)cc1 (stereo not drawn) | Escherichia coli | Ames test | WP2 uvrA | 500 µg/plate, without metabolic activation | reference: solvent control | revertant fold increase | 0.8 fold |
| O=C(NCC1OC2CCC=CCCC2O1)c1ccc(COCCOCCOCC[18F])cc1 (stereo not drawn) |  |  | healthy female BALB/c nude mice, lungs | intravenous, 7.4 MBq per mouse, 60 min |  | tissue uptake | 2.1 ± 0.5 %ID/g |
| CC(C)C[C@@H](NC(=O)[C@@H](CC(C)C)NC(=O)[C@@H](CC(=O)O)NC(=O)[C@@H](CC(C)C)NC(=O)[C@@H](CC(C)C)NC(=O)[C@@H](CC(C)C)NC(=O)[C@H](NC(=O)[C@@H](CC(=O)O)NC(=O)[C@H](NC(=O)[C@H]1CCCN1C(=O)[C@@H](Cc1ccccc1)NC(=O)[C@@H](CC(C)C)NC(=O)[C@@H](CC(C)C)NC(=O)[C@@H](CC(=O)O)NC(=O)[C@@H](CC(C)C)NC(=O)[C@@H](Cc1ccc(O)cc1)NC(=O)[C@@H](C)NC(=O)[C@@H](CCCNC(=N)N)NC(=O)[C@@H](Cc1c[nH]c2ccccc12)NC(=O)[C@H]1CCCN1C(=O)[C@@H](CC(N)=O)NC(=O)[C@@H](CCC(N)=O)NC(=O)[C@@H](CC(=O)O)NC(=O)[C@@H](CC(=O)O)NC(=O)[C@@H](CSC1CC(=O)N(CCNC(=O)CN2CCN(CC(=O)O)CCN(CC(=O)O)CC2)C1=O)NC(=O)[C@@H](C)N)[C@H](C)O)[C@H](C)O)C(=O)N[C@H](Cc1c[nH]c2ccccc12)C(=O)O (stereo partly drawn) [fluorine-18 labelled] |  |  | female C57BL/6 mice, B16-F10 melanoma, blood | intravenous, 8 h |  | tissue uptake | 14.3 %ID/g |
| CCCC[C@H](NC(=O)CCCCCCCNC(=O)CN1CCN(CC(=O)O)CCN(CC(=O)O)CC1)C(=O)N[C@H]1CC(=O)NCCCC[C@@H](C(N)=O)NC(=O)[C@H](Cc2c[nH]c3ccccc23)NC(=O)[C@H](CCCNC(=N)N)NC(=O)[C@@H](Cc2ccccc2)NC(=O)[C@H](Cc2c[nH]cn2)NC1=O [fluorine-18 labelled] |  |  | C57 mice, B16/F10 melanoma, muscle | intravenous, 1 h, with: NDP-MSH 10 µg |  | tissue uptake | 0.42 ± 0.09 %ID/g |
| Cc1cc(C)n(CCN(CCN)CCCCCCNC(=O)[C@@H](N)Cc2c[nH]cn2)n1.[99Tc+].[C-]#[O+].[C-]#[O+].[C-]#[O+] |  |  | BALB/c nude mice, A549 xenograft, brain | intravenous, 4 h |  | tissue uptake | 0.05 ± 0.01 %IA/g |
| [11CH3]N1CCC(NC(=O)c2cc(-c3c(O)cc(O)cc3Oc3ccc([N+](=O)[O-])cc3)on2)CC1 |  |  | Wistar rat, female, healthy, lungs | intravenous, 60 min |  | tissue uptake | 0.6 ± 0.1 %ID |
| C=CC(=O)Nc1cccc(Cn2ncc3cnc(Nc4cnn(CCOC)c4)nc32)c1 | CSNK1E human | binding, KINOMEscan |  | 100 nM | lower = stronger binding | percent of control | 100% |
| COC1CN([C@H]2CC[C@H]([C@@]3(C)Oc4c(Cl)cc(C(=O)NCc5c(SC)cc(C)[nH]c5=O)c(C)c4O3)CC2)C1 |  | RNA-seq, item: KREMEN1 | human, whole blood | dose not given, 24 h | reference: pretreatment baseline | log2 fold change | 2.24 |
| COc1cccc(OC)c1-c1cc(C(=O)NC2(C(=O)O)C3CC4CC(C3)CC2C4)nn1-c1ccc(C(=O)N(C)CCCN(C)C(=O)[C@H](CCCCNC(=O)[C@H](CC(C)C)NC(=O)C2OC2C(=O)O)NC(=O)CN2CCN(CC(=O)[O-])CCN(CC(=O)[O-])CCN(CC(=O)[O-])CC2)cc1C(C)C.[177Lu+3] (mixture of isomers) |  |  | mouse, HT-29 xenograft, HT-29 tumour | 72 h post injection |  | tissue uptake | 1.83 %ID/g |
| CC(C)C[C@H](NC(=O)[C@@H](CCCCNC(=O)[C@@H](Cc1ccccc1)NC(=O)CCCCCNC(=O)CN1CCN(CC(=O)O)CCN(CC(=O)O)CCN(CC(=O)O)CC1)NC(=O)[C@H](Cc1ccc(O)cc1)NC(=O)[C@H](CO)NC(=O)[C@H](Cc1c[nH]c2ccccc12)NC(=O)[C@H](Cc1c[nH]cn1)NC(=O)[C@@H]1CCC(=O)N1)C(=O)N[C@@H](CCCNC(=N)N)C(=O)N1CCC[C@H]1C(=O)NCC(N)=O [indium-111 labelled] |  |  | female athymic nude mice, spleen | intravenous, 0.037 MBq, 4 h |  | tissue uptake | 0.07 ± 0.03 %ID/g |
| N#C[C@@H]1CC(F)(F)CN1C(=O)CNC(=O)c1ccnc2c(NC(=O)[C@@H](N)CCCCNC(=O)CCOCCOCCOCCOCCOCCOCCNC(=O)CN3CCN(CC(=O)[O-])CCN(CC(=O)[O-])CCN(CC(=O)[O-])CC3)cccc12.[177Lu+3] |  |  | mouse, U-87 MG tumour xenograft, brain | 48 h |  | tissue uptake | 0.02 ± 0.02 %ID/g |
| COc1cccc(OC)c1-c1cc(C(=O)NC2(C(=O)O)C3CC4CC(C3)CC2C4)nn1-c1ccc(C(=O)N(C)CCOCCOCCN(C)C(=O)[C@H](CCCCNC(=O)[C@H](CC(C)C)NC(=O)C2OC2C(=O)O)NC(=O)CN2CCN(CC(=O)[O-])CCN(CC(=O)[O-])CCN(CC(=O)[O-])CC2)cc1C(C)C.[177Lu+3] (mixture of isomers) |  |  | mouse, HT-29 xenograft, muscle | 4 h post injection |  | tissue uptake | 0.42 %ID/g |
| CC(C(=O)O)n1nc(Cn2cc3cc(OCC[18F])c(Cl)cc3n2)c2ccccc2c1=O (racemic) |  |  | Sprague-Dawley rat male, fat | 120 min |  | tissue uptake | 0.01 ± 0.01 %ID/g |
| O=C(CN1CCN(CC(=O)NCc2ncccc2O)CCN(CC(=O)NCc2ncccc2O)CCN(CC(=O)NCc2ncccc2O)CC1)NCc1ncccc1O.[177Lu+3] |  |  | Sprague-Dawley rat, heart | intravenous (tail vein), dose not given, 2 h |  | tissue uptake | 0.048 ± 0.01 % injected dose/g |
| COc1ccc(Nc2nc(Nc3ccc(OCCOCCOCC[18F])cc3)ncc2Br)cc1 |  |  | ICR mice, S180 tumour-bearing, heart | intravenous, 370 kBq, 30 min |  | tissue uptake | 1.26 ± 0.09 %ID/g |
| O=C(O)CCCOc1ccc([18F])cc1-c1cc(-c2ccccc2C(F)(F)F)n(-c2ccccc2)n1 |  |  | mouse, small intestine | intravenous, dose not given, 30 min |  | tissue uptake | 3.52 ± 0.34 %ID/g |
| [123I]c1ccc2nc(-c3ccc(-n4ccnn4)nc3)cn2c1 |  |  | male Wistar rat, large intestine | intravenous, 4 MBq, 14 h |  | tissue uptake | 0.609 ± 0.274 %ID/g |
| COc1cc(O)ccc1CCC(c1ccc(O)cc1)c1cc2c(c(C)c1O)OC(c1ccc(O)cc1)CC2 (mixture of isomers) |  |  | human blood | 3 µM, with: A23187 |  | 4-HDHA level | 49 ± 26 pg/mL |
| CC(C)C[C@H](NC(=O)[C@H](Cc1ccc(O)cc1)NC(=O)[C@@H](CCCNC(=N)N)NC(=O)[C@@H](CO)NC(=O)[C@H](Cc1ccccc1)NC(=O)[C@H](CC1CCCCC1)NC(=O)[C@H](CC(=O)O)NC(=O)CN1CCN(CC(=O)O)CCN(CC(=O)O)CCN(CC(=O)O)CC1)C(=O)N[C@@H](Cc1c[nH]c2ccccc12)C(=O)N[C@@H](CO)C(=O)O [copper-64 labelled] |  |  | human, brain | concentration not given, 1 h |  | activity concentration | 171 Bq/mL and 157 Bq/mL and 235 Bq/mL and 146 Bq/mL and 310 Bq/mL and 366 Bq/mL |
| COc1cccc(OC)c1-c1cc(C(=O)NC2(C(=O)O)C3CC4CC(C3)CC2C4)nn1-c1ccc(C(=O)N(C)CCOCCN(C)C(=O)[C@H](CCCCNC(=O)[C@H](CC(C)C)NC(=O)C2OC2C(=O)O)NC(=O)CN2CCN(CC(=O)[O-])CCN(CC(=O)[O-])CCN(CC(=O)[O-])CC2)cc1C(C)C.[177Lu+3] (mixture of isomers) |  |  | mouse, HT-29 xenograft, HT-29 tumour | 24 h post injection |  | tissue uptake | 3.03 %ID/g |
| CCOC(=O)CNC(=O)CN1CCN(CC(=O)NCC(=O)OCC)CCN(CC(=O)NCC(=O)OCC)CCN(CC(=O)NCC(=O)OCC)CC1.[177Lu+3] |  |  | Sprague-Dawley rat, bone | intravenous (tail vein), dose not given, 2 h |  | tissue uptake | 0.149 ± 0.063 % injected dose/g |
| COc1cccc(OC)c1-c1cc(C(=O)NC2(C(=O)O)C3CC4CC(C3)CC2C4)nn1-c1ccc(C(=O)NCCNC(=O)[C@H](CCCCNC(=O)[C@H](CC(C)C)NC(=O)C2OC2C(=O)O)NC(=O)CN2CCN(CC(=O)[O-])CCN(CC(=O)[O-])CCN(CC(=O)[O-])CC2)cc1C(C)C.[177Lu+3] (mixture of isomers) |  |  | mouse, HT-29 xenograft, spleen | 24 h post injection |  | tissue uptake | 0.71 %ID/g |
| N#C[C@@H]1CC(F)(F)CN1C(=O)CNC(=O)c1ccnc2c(NC(=O)CCOCCOCCOCCOCCOCCOCCNC(=O)[C@H](CCCCNC(=O)CN3CCN(CC(=O)[O-])CCN(CC(=O)[O-])CCN(CC(=O)[O-])CC3)NC(=O)CCCc3ccc(I)cc3)cccc12.[177Lu+3] |  |  | mouse, U-87 MG tumour xenograft, spleen | 24 h |  | tissue uptake | 0.37 ± 0.24 %ID/g |
| COc1cccc(OC)c1-c1cc(C(=O)NC2(C(=O)O)C3CC4CC(C3)CC2C4)nn1-c1ccc(C(=O)N(C)CCCN(C)CCCN(C)C(=O)[C@H](CCCCNC(=O)[C@H](CC(C)C)NC(=O)C2OC2C(=O)O)NC(=O)CN2CCN(CC(=O)[O-])CCN(CC(=O)[O-])CCN(CC(=O)[O-])CC2)cc1C(C)C.[177Lu+3] (mixture of isomers) |  |  | mouse HT-29 xenograft, large intestine | 72 h post injection, biodistribution |  | tissue uptake | 0.158 %ID/g |
| CN(CCCO)Cc1ccc(-c2noc(-c3ccc(OCC[18F])c(C(F)(F)F)c3)n2)cc1F |  |  | Sprague-Dawley rats, male, liver | 5 min post-injection |  | tissue uptake | 4.57 ± 0.16 %ID/g |
| COc1cc(Nc2nccc(-c3cnn4nc(OC)ccc34)n2)cc(C(F)(F)F)c1 | KIT (Homo sapiens, UniProt P10721, V559D) | binding |  | 1 µM |  | remaining binding | 63% |
| C=C(NC(=O)c1csc(-c2nc3c(cc2O)-c2nc(cs2)C(=O)NC(C(C)O)C(=O)NC(=C(C)OC)c2nc(cs2)C(=O)NC2c4nc(cs4)C(=O)NC(COC(=O)c4c5c6c(cccc6n4O)COC(=O)C(OC4CC(C)(O)C(N(C)C)C(C)O4)C2OC5)c2nc-3cs2)n1)C(N)=O (stereo not drawn) |  |  | Sprague-Dawley rats, male, plasma | intravenous infusion, 6 mg/kg, day 1, multiple dosing |  | AUC(0-inf) | 1520 ng·h/mL |

For quick reference, copied from above:
| Compound | target or system | assay | test system | setting | how to read | quantity | value |
| --- | --- | --- | --- | --- | --- | --- | --- |
| O=C(NCC1OC2CCC=CCCC2O1)c1ccc(COCCOCCOCC[18F])cc1 (stereo not drawn) |  |  | healthy female BALB/c nude mice, lungs | intravenous, 7.4 MBq per mouse, 60 min |  | tissue uptake | 2.1 ± 0.5 %ID/g |
| CC(C)C[C@@H](NC(=O)[C@@H](CC(C)C)NC(=O)[C@@H](CC(=O)O)NC(=O)[C@@H](CC(C)C)NC(=O)[C@@H](CC(C)C)NC(=O)[C@@H](CC(C)C)NC(=O)[C@H](NC(=O)[C@@H](CC(=O)O)NC(=O)[C@H](NC(=O)[C@H]1CCCN1C(=O)[C@@H](Cc1ccccc1)NC(=O)[C@@H](CC(C)C)NC(=O)[C@@H](CC(C)C)NC(=O)[C@@H](CC(=O)O)NC(=O)[C@@H](CC(C)C)NC(=O)[C@@H](Cc1ccc(O)cc1)NC(=O)[C@@H](C)NC(=O)[C@@H](CCCNC(=N)N)NC(=O)[C@@H](Cc1c[nH]c2ccccc12)NC(=O)[C@H]1CCCN1C(=O)[C@@H](CC(N)=O)NC(=O)[C@@H](CCC(N)=O)NC(=O)[C@@H](CC(=O)O)NC(=O)[C@@H](CC(=O)O)NC(=O)[C@@H](CSC1CC(=O)N(CCNC(=O)CN2CCN(CC(=O)O)CCN(CC(=O)O)CC2)C1=O)NC(=O)[C@@H](C)N)[C@H](C)O)[C@H](C)O)C(=O)N[C@H](Cc1c[nH]c2ccccc12)C(=O)O (stereo partly drawn) [fluorine-18 labelled] |  |  | female C57BL/6 mice, B16-F10 melanoma, blood | intravenous, 8 h |  | tissue uptake | 14.3 %ID/g |
| CCCC[C@H](NC(=O)CCCCCCCNC(=O)CN1CCN(CC(=O)O)CCN(CC(=O)O)CC1)C(=O)N[C@H]1CC(=O)NCCCC[C@@H](C(N)=O)NC(=O)[C@H](Cc2c[nH]c3ccccc23)NC(=O)[C@H](CCCNC(=N)N)NC(=O)[C@@H](Cc2ccccc2)NC(=O)[C@H](Cc2c[nH]cn2)NC1=O [fluorine-18 labelled] |  |  | C57 mice, B16/F10 melanoma, muscle | intravenous, 1 h, with: NDP-MSH 10 µg |  | tissue uptake | 0.42 ± 0.09 %ID/g |
| Cc1cc(C)n(CCN(CCN)CCCCCCNC(=O)[C@@H](N)Cc2c[nH]cn2)n1.[99Tc+].[C-]#[O+].[C-]#[O+].[C-]#[O+] |  |  | BALB/c nude mice, A549 xenograft, brain | intravenous, 4 h |  | tissue uptake | 0.05 ± 0.01 %IA/g |
| [11CH3]N1CCC(NC(=O)c2cc(-c3c(O)cc(O)cc3Oc3ccc([N+](=O)[O-])cc3)on2)CC1 |  |  | Wistar rat, female, healthy, lungs | intravenous, 60 min |  | tissue uptake | 0.6 ± 0.1 %ID |
